Experimental data of several laboratories.
Lines come from different studies, so protocols differ. ± gives the spread as reported.
4'-phosphopantetheinyl transferase PptT: 4'-phosphopantetheinyl transferase PptT (Mycobacterium tuberculosis, UniProt O33336)
CNR1 I267L: Cannabinoid receptor 1 (CNR1, Homo sapiens, UniProt P21554, I267L)

Structure (SMILES)	target or system	test	system	setting	how to read	quantity	value
Cc1nc(=O)c2cc(CN(C)c3ccc(C(=O)NCc4ccccn4)s3)ccc2[nH]1	4'-phosphopantetheinyl transferase PptT	enzyme activity, inhibitor, fluorescence polarization				Hill slope	0.9
CCCCCn1cc(C(=O)c2ccc3ccccc3c2)c2ccccc21	CNR2 (Homo sapiens, UniProt P34972, V261L)	Gαi1 engagement, agonist, BRET			relative to: wild type	change in Emax	~20%
CN(C)C(=O)[C@@H](NC(=O)c1ccccc1-c1ccc(C(F)(F)F)cc1)c1cccc(C(F)(F)F)c1	NKG2-D type II integral membrane protein, with ULBP6 (KLRK1, Homo sapiens, UniProt P26718)	cellular TR-FRET ligand displacement				lipophilic ligand efficiency	2.7 ± 1.1
N=C(N)NCCC[C@@H]1NC(=O)[C@H](CCCCNC(=O)CCOCCOCCOCCOCCNC(=O)CN2CCN(CC(=O)O)CCN(CC(=O)O)CCN(CC(=O)O)CC2)NC(=O)[C@@H](Cc2ccccc2)NC(=O)[C@H](CC(=O)O)NC(=O)CNC1=O [indium-111 labelled]			athymic nude mice, female, U-87 MG glioma xenograft, U-87 MG tumour	intravenous, 3 µCi, 0.5 h		tissue uptake	3.74 ± 0.55 %ID/g
Cc1nc(=O)c2cc(CN(C)c3ccc(C(=O)N[C@@H](CCC(=O)O)c4nnn[nH]4)s3)ccc2[nH]1	4'-phosphopantetheinyl transferase PptT	enzyme activity, inhibitor, fluorescence polarization				Hill slope	1.8
CCCC[C@H](NC(=O)CNC(=O)CNC(=O)c1ccc(NN)nc1)C(=O)N[C@H]1CC(=O)NCCCC[C@@H](C(N)=O)NC(=O)[C@H](Cc2c[nH]c3ccccc23)NC(=O)[C@H](CCCNC(=N)N)NC(=O)[C@@H](Cc2ccccc2)NC(=O)[C@H](Cc2c[nH]cn2)NC1=O [technetium-99m labelled]			C57 mouse, B16/F1 melanoma-bearing, tumor	intravenous, 4 h		tissue uptake	13.2 ± 2.35 %ID/g
N=C(N)NCCC[C@@H]1NC(=O)[C@H](CCCCNC(=O)CNC(=O)CNC(=O)CNC(=O)CC[C@H](NC(=O)CCOCCOCCOCCOCCNC(=O)CC[C@H](NC(=O)CN2CCN(CC(=O)O)CCN(CC(=O)O)CCN(CC(=O)O)CC2)C(=O)NCCOCCOCCOCCOCCC(=O)N[C@@H](CCC(=O)NCC(=O)NCC(=O)NCC(=O)NCCCC[C@@H]2NC(=O)[C@@H](Cc3ccccc3)NC(=O)[C@H](CC(=O)O)NC(=O)CNC(=O)[C@H](CCCNC(=N)N)NC2=O)C(=O)NCC(=O)NCC(=O)NCC(=O)NCCCC[C@@H]2NC(=O)[C@@H](Cc3ccccc3)NC(=O)[C@H](CC(=O)O)NC(=O)CNC(=O)[C@H](CCCNC(=N)N)NC2=O)C(=O)NCC(=O)NCC(=O)NCC(=O)NCCCC[C@@H]2NC(=O)[C@@H](Cc3ccccc3)NC(=O)[C@H](CC(=O)O)NC(=O)CNC(=O)[C@H](CCCNC(=N)N)NC2=O)NC(=O)[C@@H](Cc2ccccc2)NC(=O)[C@H](CC(=O)O)NC(=O)CNC1=O [indium-111 labelled]			athymic nude mice, female, U-87 MG glioma xenograft, U-87 MG tumour	intravenous, 3 µCi, 0.5 h		tissue uptake	11.4 ± 2.92 %ID/g
CCN(Cc1ccccc1)C(=O)CCc1nc(CN2CCN(C(=O)Cc3ccc(OC)c(OC)c3)CC2)no1	Voltage-gated potassium channel, KQT; KCNQ2(Kv7.2)/KCNQ3(Kv7.3) (KCNQ3/KCNQ2, Homo sapiens, UniProt O43525+O43526)	whole-cell patch clamp	CHO stable	300 nM		V1/2 of activation	-30.3 ± 2.81 mV
CC(C)C[C@H](NC(=O)[C@H](Cc1ccccc1)NC(=O)CNC(=O)CNC(=O)[C@@H](N)Cc1ccc(O)cc1)C(=O)O		K+ current, agonist, photo-uncaging	rat locus coeruleus neurons	concentration not given, small somatic currents		current amplitude	63.4 ± 5.9 pA
CN[C@](C)(C[18F])C(=O)O	DU-145 tumour model		host not given, kidney	15 min, tumour-bearing		tracer uptake	28 %ID/g
CCCCCn1cc(C(=O)c2ccc3c(c2)CC(C)(C)C3)c2ccccc21	CNR1 I267L	Gαi1 engagement, agonist, BRET			relative to: reference agonist at wild-type CB1	Emax	26.9 ± 2.9%
Cc1nc(=O)c2cc(CN(C)c3ccc(C(=O)N[C@H](CCc4nn[nH]n4)C(=O)O)s3)ccc2[nH]1	4'-phosphopantetheinyl transferase PptT	enzyme activity, inhibitor, fluorescence polarization				Hill slope	1.7
O=S(=O)(O)CCOCC1CSSCC(COCCS(=O)(=O)O)SS1 (stereo not drawn)	DNA-binding response regulator MtrA, C-terminal domain (mtrA, Mycobacterium tuberculosis, UniProt P9WGM7)	binding, LSPR				kon	3200 ± 520 M⁻¹ s⁻¹
CN(C)CC1CCCCC1(O)c1cccc(O)c1 (stereo not drawn)	Caco-2 TC7			100 µM, 3 h, pH 6.8 apical, 7.4 basolateral		Papp A to B	6.7 ± 0.4 ×10⁻⁶ cm/s
CCCCCn1cc(C(=O)c2cccc3c2CC(C)(C)C3)c2ccccc21	CNR1 (Homo sapiens, UniProt P21554)	β-arrestin recruitment, agonist, BRET	HEK-293T			Emax	163%
CCOC(=O)C1C(OC(c2ccc(Cl)cc2)c2ccc(Cl)cc2)CC2CCC1N2C (single isomer, unassigned)	rat NMDA receptor PCP site	binding, radioligand displacement		inactive if below 75% at 10000 nM, together with: [3H]TCP		Ki	inactive
CCCCCn1cc(C(=O)c2cccc3ccccc23)c2ccccc21	CNR1 I267L	Gαi1 engagement, agonist, BRET			relative to: wild type	Emax decrease	~65%
Cc1nc(=O)c2cc(CN(C)c3ccc(C(=O)NCCNS(C)(=O)=O)s3)ccc2[nH]1	4'-phosphopantetheinyl transferase PptT	enzyme activity, inhibitor, fluorescence polarization				Hill slope	1

A few entries again:
Structure (SMILES)	target or system	test	system	setting	how to read	quantity	value
N=C(N)NCCC[C@@H]1NC(=O)[C@H](CCCCNC(=O)CNC(=O)CNC(=O)CNC(=O)CC[C@H](NC(=O)CCOCCOCCOCCOCCNC(=O)CC[C@H](NC(=O)CN2CCN(CC(=O)O)CCN(CC(=O)O)CCN(CC(=O)O)CC2)C(=O)NCCOCCOCCOCCOCCC(=O)N[C@@H](CCC(=O)NCC(=O)NCC(=O)NCC(=O)NCCCC[C@@H]2NC(=O)[C@@H](Cc3ccccc3)NC(=O)[C@H](CC(=O)O)NC(=O)CNC(=O)[C@H](CCCNC(=N)N)NC2=O)C(=O)NCC(=O)NCC(=O)NCC(=O)NCCCC[C@@H]2NC(=O)[C@@H](Cc3ccccc3)NC(=O)[C@H](CC(=O)O)NC(=O)CNC(=O)[C@H](CCCNC(=N)N)NC2=O)C(=O)NCC(=O)NCC(=O)NCC(=O)NCCCC[C@@H]2NC(=O)[C@@H](Cc3ccccc3)NC(=O)[C@H](CC(=O)O)NC(=O)CNC(=O)[C@H](CCCNC(=N)N)NC2=O)NC(=O)[C@@H](Cc2ccccc2)NC(=O)[C@H](CC(=O)O)NC(=O)CNC1=O [indium-111 labelled]			athymic nude mice, female, U-87 MG glioma xenograft, U-87 MG tumour	intravenous, 3 µCi, 0.5 h		tissue uptake	11.4 ± 2.92 %ID/g
CCN(Cc1ccccc1)C(=O)CCc1nc(CN2CCN(C(=O)Cc3ccc(OC)c(OC)c3)CC2)no1	Voltage-gated potassium channel, KQT; KCNQ2(Kv7.2)/KCNQ3(Kv7.3) (KCNQ3/KCNQ2, Homo sapiens, UniProt O43525+O43526)	whole-cell patch clamp	CHO stable	300 nM		V1/2 of activation	-30.3 ± 2.81 mV
